Experimental data from different studies.
± gives the spread as reported.
Sequence of UniProt P33261 (whole entry, looked up): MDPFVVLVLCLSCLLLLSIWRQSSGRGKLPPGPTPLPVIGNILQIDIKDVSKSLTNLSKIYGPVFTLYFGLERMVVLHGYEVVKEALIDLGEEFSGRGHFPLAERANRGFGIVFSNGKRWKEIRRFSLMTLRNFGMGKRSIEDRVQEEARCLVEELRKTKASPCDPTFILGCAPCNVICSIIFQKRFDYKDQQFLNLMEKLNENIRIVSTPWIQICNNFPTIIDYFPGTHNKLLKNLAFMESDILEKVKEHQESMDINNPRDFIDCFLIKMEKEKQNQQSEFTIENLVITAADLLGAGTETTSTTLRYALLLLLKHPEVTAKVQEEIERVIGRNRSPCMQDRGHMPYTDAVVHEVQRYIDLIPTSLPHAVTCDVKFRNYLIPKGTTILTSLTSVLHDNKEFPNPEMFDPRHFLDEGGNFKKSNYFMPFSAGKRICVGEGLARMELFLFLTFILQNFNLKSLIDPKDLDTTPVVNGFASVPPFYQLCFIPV

CCCC[C@H](NC(=O)CNC(=O)CNC(=O)[C@H](CCCCNC(=O)[C@H](CC(=O)O)NC(=O)C(C)c1ccc(CC(C)C)cc1)NC(=O)CN1CCN(CC(=O)O)CCN(CC(=O)O)CCN(CC(=O)O)CC1)C(=O)N[C@H]1CC(=O)NCCCC[C@@H](C(N)=O)NC(=O)[C@H](Cc2c[nH]c3ccccc23)NC(=O)[C@H](CCCNC(=N)N)NC(=O)[C@@H](Cc2ccccc2)NC(=O)[C@H](Cc2c[nH]cn2)NC1=O (stereo partly shown) [lutetium-177 labelled]  tissue uptake (C57 mice, tumour-bearing, muscle; intravenous, 0.037 MBq, 4 h): 0.3 ± 0.06 %ID/g
COc1cccc(OC)c1-c1cc(C(=O)NC2(C(=O)O)C3CC4CC(C3)CC2C4)nn1-c1ccc(C(=O)N(C)CCCN(C)CCCN(C)C(=O)[C@H](CCCCNC(=O)[C@H](CC(C)C)NC(=O)C2OC2C(=O)O)NC(=O)CN2CCN(CC(=O)[O-])CCN(CC(=O)[O-])CCN(CC(=O)[O-])CC2)cc1C(C)C.[177Lu+3] (mixture of isomers)  tissue uptake (mouse HT-29 xenograft, small intestine; 4 h post injection, biodistribution): 1.9 %ID/g
N#C[C@@H]1CC(F)(F)CN1C(=O)CNC(=O)c1ccnc2c(NC(=O)CCOCCOCCOCCOCCOCCOCCNC(=O)[C@H](CCCCNC(=O)CN3CCN(CC(=O)[O-])CCN(CC(=O)[O-])CCN(CC(=O)[O-])CC3)NC(=O)CCCc3ccc(I)cc3)cccc12.[177Lu+3]  tissue uptake (mouse, U-87 MG tumour xenograft, brain; 4 h): 0.12 ± 0.05 %ID/g
O=C1C2CC3CC1CC(C(=O)N1CCN(c4ccc([N+](=O)[O-])c5ncccc45)CC1)(C3)C2  revertant fold increase (Salmonella typhimurium; Ames test; TA1535; 0.13 µg/well, with S9; reference: vehicle): 0.8
CC(C)C[C@H](NC(=O)[C@@H](CCCCNC(=O)[C@@H](Cc1ccccc1)NC(=O)CCCCCCCNC(=O)CN1CCN(CC(=O)O)CCN(CC(=O)O)CCN(CC(=O)O)CC1)NC(=O)[C@H](Cc1ccc(O)cc1)NC(=O)[C@H](CO)NC(=O)[C@H](Cc1c[nH]c2ccccc12)NC(=O)[C@H](Cc1c[nH]cn1)NC(=O)[C@@H]1CCC(=O)N1)C(=O)N[C@@H](CCCNC(=N)N)C(=O)N1CCC[C@H]1C(=O)NCC(N)=O [indium-111 labelled]  tissue uptake (biodistribution; male athymic nude mice, DU-145 prostate cancer xenograft, stomach; intravenous, 0.037 MBq, 4 h post-injection): 0.35 ± 0.1 %ID/g
COC1CN([C@H]2CC[C@H]([C@@]3(C)Oc4c(Cl)cc(C(=O)NCc5c(SC)cc(C)[nH]c5=O)c(C)c4O3)CC2)C1  log2 fold change (RNA-seq, item: CRIM1 mouse homolog; mouse, HT-1376 xenograft, whole blood; dose not given; reference: vehicle): 0.639
CNC(=O)C1CCCN(C(=O)C2CC3CCC2N3C(=O)[C@@H]2C[C@@H](O)CN2C(=O)NCc2cccc(Cl)c2F)C1 (mixture of isomers)  remaining activity (Cytochrome P450 2C19 (CYP2C19, Homo sapiens, UniProt P33261); enzyme activity, inhibitor, time-dependent inhibition; 0.0686 µM, preincubated without NADPH; reference: negative control): 83.7%
[123I]c1ccc2nc(-c3ccc(-n4ccnn4)nc3)cn2c1  tissue uptake (male Wistar rat, small intestine; intravenous, 4 MBq, 6 h): 0.674 ± 0.099 %ID/g
COc1cccc(OC)c1-c1cc(C(=O)NC2(C(=O)O)C3CC4CC(C3)CC2C4)nn1-c1ccc(C(=O)N(C)CCCN(C)C(=O)[C@H](CCCCNC(=O)[C@H](CC(C)C)NC(=O)C2OC2C(=O)O)NC(=O)CN2CCN(CC(=O)[O-])CCN(CC(=O)[O-])CCN(CC(=O)[O-])CC2)cc1C(C)C.[177Lu+3] (mixture of isomers)  tissue uptake (mouse HT-29 xenograft, small intestine; 24 h post injection, biodistribution): 0.22 %ID/g
CCCC[C@H](NC(=O)COCCOCCNC(=O)CN1CCN(CC(=O)O)CCN(CC(=O)O)CC1)C(=O)N[C@H]1CC(=O)NCCCC[C@@H](C(N)=O)NC(=O)[C@H](Cc2c[nH]c3ccccc23)NC(=O)[C@H](CCCNC(=N)N)NC(=O)[C@@H](Cc2ccccc2)NC(=O)[C@H](Cc2c[nH]cn2)NC1=O [fluorine-18 labelled]  tissue uptake (C57 mice B16-F10 melanoma, heart; intravenous, 0.37 MBq, 1 h): 0.59 ± 0.28 %ID/g
COc1cccc(OC)c1-c1cc(C(=O)NC2(C(=O)O)C3CC4CC(C3)CC2C4)nn1-c1ccc(C(=O)NCCNC(=O)[C@H](CCCCNC(=O)[C@H](CC(C)C)NC(=O)C2OC2C(=O)O)NC(=O)CN2CCN(CC(=O)[O-])CCN(CC(=O)[O-])CCN(CC(=O)[O-])CC2)cc1C(C)C.[177Lu+3] (mixture of isomers)  tissue uptake (mouse HT-29 xenograft, small intestine; 4 h post injection, biodistribution): 0.89 %ID/g
C=CC(=O)Nc1cccc(Cn2ncc3cnc(Nc4cnn(CCOC)c4)nc32)c1  percent of control (WNK4 human; binding, KINOMEscan; 100 nM; lower = stronger binding): 91%
O=C(O)CCCOc1ccc([18F])cc1-c1cc(-c2ccccc2C(F)(F)F)n(-c2ccccc2)n1  tissue uptake (mouse, urine; intravenous, dose not given, 5 min): 0.02 ± 0.02 %ID/g

Repeated from above:
CCCC[C@H](NC(=O)COCCOCCNC(=O)CN1CCN(CC(=O)O)CCN(CC(=O)O)CC1)C(=O)N[C@H]1CC(=O)NCCCC[C@@H](C(N)=O)NC(=O)[C@H](Cc2c[nH]c3ccccc23)NC(=O)[C@H](CCCNC(=N)N)NC(=O)[C@@H](Cc2ccccc2)NC(=O)[C@H](Cc2c[nH]cn2)NC1=O [fluorine-18 labelled]  tissue uptake (C57 mice B16-F10 melanoma, heart; intravenous, 0.37 MBq, 1 h): 0.59 ± 0.28 %ID/g
COc1cccc(OC)c1-c1cc(C(=O)NC2(C(=O)O)C3CC4CC(C3)CC2C4)nn1-c1ccc(C(=O)NCCNC(=O)[C@H](CCCCNC(=O)[C@H](CC(C)C)NC(=O)C2OC2C(=O)O)NC(=O)CN2CCN(CC(=O)[O-])CCN(CC(=O)[O-])CCN(CC(=O)[O-])CC2)cc1C(C)C.[177Lu+3] (mixture of isomers)  tissue uptake (mouse HT-29 xenograft, small intestine; 4 h post injection, biodistribution): 0.89 %ID/g
